Measurements pooled from the literature.
A part holds a random share of what one study measured.
UniProt Q5S007, sequence (whole entry, looked up): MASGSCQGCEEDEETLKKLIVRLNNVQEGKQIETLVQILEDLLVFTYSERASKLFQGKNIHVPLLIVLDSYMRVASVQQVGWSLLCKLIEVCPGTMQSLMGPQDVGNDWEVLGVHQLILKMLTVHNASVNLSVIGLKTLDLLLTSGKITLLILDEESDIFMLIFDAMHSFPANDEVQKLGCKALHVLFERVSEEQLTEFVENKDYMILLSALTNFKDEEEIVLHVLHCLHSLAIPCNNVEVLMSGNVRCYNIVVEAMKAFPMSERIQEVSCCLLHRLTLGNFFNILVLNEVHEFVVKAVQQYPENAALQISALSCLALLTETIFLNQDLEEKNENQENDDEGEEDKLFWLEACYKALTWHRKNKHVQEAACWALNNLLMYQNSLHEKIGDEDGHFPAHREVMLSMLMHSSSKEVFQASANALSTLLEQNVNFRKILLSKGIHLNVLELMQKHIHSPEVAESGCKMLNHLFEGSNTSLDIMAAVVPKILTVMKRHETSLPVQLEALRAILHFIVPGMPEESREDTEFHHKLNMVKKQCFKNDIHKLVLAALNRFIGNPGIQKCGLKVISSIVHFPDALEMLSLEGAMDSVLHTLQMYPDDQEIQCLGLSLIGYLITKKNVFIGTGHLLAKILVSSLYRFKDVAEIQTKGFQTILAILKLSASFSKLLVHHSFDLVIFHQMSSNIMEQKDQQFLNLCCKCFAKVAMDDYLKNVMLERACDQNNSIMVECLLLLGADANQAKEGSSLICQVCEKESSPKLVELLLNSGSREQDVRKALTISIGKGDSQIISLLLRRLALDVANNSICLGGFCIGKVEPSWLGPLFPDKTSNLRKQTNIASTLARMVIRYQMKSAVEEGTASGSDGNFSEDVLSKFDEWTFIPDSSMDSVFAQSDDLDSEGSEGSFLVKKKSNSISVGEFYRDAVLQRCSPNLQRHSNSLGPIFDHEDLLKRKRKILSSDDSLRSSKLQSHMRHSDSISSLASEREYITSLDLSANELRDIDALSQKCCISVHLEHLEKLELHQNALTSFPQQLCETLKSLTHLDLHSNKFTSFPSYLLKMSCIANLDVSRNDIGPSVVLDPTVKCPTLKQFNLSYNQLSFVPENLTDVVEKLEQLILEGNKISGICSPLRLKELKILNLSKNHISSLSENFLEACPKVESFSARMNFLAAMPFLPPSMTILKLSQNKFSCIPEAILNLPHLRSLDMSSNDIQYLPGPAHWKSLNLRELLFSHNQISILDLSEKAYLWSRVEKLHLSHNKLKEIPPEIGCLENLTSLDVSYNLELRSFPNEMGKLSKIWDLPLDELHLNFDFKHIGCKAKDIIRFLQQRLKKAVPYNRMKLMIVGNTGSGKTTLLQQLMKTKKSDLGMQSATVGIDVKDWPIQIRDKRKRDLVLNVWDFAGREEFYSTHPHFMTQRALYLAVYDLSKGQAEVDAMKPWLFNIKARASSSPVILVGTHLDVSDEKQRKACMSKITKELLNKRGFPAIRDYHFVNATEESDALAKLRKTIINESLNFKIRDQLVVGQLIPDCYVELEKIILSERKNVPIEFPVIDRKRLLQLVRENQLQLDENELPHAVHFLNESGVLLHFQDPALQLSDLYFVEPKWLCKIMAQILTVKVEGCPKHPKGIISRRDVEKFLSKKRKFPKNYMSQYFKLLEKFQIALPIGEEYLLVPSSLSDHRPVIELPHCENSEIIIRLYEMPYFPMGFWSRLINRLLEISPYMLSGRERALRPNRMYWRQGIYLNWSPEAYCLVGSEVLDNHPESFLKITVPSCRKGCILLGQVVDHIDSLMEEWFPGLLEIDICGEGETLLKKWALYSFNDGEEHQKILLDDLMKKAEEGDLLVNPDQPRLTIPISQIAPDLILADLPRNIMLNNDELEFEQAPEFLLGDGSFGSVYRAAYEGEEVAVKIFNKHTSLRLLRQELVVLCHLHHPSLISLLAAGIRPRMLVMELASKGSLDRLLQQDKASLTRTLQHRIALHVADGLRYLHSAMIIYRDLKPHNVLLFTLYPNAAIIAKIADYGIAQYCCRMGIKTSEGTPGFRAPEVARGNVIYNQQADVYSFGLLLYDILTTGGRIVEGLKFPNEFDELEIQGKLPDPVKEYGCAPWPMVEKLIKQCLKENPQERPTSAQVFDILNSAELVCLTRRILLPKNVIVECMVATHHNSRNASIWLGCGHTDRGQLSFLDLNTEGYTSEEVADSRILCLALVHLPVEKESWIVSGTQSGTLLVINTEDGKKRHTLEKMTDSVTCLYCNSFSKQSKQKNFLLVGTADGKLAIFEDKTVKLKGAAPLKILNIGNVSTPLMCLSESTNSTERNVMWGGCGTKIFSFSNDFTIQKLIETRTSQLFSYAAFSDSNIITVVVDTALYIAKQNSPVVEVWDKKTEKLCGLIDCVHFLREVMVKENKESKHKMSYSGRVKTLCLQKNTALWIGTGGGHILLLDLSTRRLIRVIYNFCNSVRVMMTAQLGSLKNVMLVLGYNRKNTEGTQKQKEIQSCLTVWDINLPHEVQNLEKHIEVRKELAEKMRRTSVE
UniProt Q00526, sequence (whole entry, looked up): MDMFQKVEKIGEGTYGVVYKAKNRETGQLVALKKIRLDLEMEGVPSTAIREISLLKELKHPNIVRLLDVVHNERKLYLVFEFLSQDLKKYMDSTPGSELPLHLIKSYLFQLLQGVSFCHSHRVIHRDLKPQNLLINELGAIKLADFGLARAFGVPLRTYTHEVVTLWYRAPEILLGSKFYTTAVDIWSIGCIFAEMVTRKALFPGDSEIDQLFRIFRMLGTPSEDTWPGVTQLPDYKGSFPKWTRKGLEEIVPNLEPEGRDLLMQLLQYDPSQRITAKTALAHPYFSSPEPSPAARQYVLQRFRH
UniProt P37023, sequence (whole entry, looked up): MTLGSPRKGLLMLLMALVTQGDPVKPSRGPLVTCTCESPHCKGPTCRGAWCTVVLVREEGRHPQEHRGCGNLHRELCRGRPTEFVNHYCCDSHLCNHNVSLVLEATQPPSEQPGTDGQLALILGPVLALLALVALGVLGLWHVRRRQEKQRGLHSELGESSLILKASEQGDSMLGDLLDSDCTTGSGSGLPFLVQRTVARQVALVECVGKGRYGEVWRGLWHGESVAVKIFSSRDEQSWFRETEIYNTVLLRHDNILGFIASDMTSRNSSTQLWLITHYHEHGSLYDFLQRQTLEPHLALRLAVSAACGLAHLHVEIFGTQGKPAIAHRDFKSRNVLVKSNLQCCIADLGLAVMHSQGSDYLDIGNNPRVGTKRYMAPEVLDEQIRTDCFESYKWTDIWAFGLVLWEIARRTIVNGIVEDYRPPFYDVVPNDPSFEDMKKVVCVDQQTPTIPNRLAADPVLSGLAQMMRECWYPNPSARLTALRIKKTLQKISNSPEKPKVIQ

Block 1
Target: Calcium/calmodulin-dependent protein kinase type II subunit alpha (CAMK2A, Homo sapiens, UniProt Q9UQM7)
UniProt Q9UQM7, sequence (whole entry, looked up): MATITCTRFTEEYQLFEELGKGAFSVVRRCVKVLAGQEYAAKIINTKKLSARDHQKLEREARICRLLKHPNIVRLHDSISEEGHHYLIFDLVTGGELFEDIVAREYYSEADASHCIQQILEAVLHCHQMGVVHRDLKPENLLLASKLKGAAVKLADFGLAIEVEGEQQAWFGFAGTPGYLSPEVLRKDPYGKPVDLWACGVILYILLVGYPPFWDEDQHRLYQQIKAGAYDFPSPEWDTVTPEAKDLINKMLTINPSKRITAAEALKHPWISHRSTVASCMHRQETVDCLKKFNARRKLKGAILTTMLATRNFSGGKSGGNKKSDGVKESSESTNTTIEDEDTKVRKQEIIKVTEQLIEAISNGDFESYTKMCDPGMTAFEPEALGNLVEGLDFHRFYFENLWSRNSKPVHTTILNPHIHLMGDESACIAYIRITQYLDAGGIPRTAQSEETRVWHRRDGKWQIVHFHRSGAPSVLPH
Observed: enzyme activity
Mode: inhibitor
Concentration: 10 µM
Structure (SMILES) | inhibition
CN1[C@@H]2CC[C@H]1C[C@@H](OC(=O)c1c[nH]c3ccccc13)C2 | -0.01%
CC1(C)O[C@@H]2C[C@H]3[C@@H]4CCC5=CC(=O)CC[C@]5(C)[C@@]4(F)[C@@H](O)C[C@]3(C)[C@]2(C(=O)CCl)O1 | -1%
OC[C@@H](O)C(O)[C@H](O)CO | 36%
COC(=O)c1ccccc1O | 7%
CC(C)=CCC/C(C)=C/CC/C(C)=C/CO | -19%
O=C(O)[C@H]1O[C@@H](Oc2c(O)cc(O)c3c(=O)c(O)c(-c4ccc(O)c(O)c4)oc23)[C@H](O)[C@@H](O)[C@@H]1O | 68%
COc1ccc(-c2cc(=O)c3c(O)c(OC)c(OC)cc3o2)cc1 | -35%
O=C(O)c1c(O)cc(O)cc1O | -18%
CCN(CC)CCOc1ccc2c(c1)C(=O)c1cc(OCCN(CC)CC)ccc1-2 | -3%

Block 2
Target: Eukaryotic initiation factor 4A-III (Homo sapiens, UniProt P38919)
UniProt P38919, sequence (whole entry, looked up): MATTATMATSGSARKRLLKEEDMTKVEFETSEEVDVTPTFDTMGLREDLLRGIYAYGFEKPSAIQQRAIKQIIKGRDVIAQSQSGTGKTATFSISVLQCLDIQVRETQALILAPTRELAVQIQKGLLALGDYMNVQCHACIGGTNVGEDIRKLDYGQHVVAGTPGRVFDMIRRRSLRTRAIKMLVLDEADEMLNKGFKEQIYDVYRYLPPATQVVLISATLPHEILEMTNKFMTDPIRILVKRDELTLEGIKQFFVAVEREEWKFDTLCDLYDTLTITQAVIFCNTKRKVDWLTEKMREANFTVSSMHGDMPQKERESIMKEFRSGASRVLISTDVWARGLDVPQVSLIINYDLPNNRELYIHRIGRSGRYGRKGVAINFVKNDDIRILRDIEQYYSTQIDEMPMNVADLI
Observed: RNA clamping
Method: fluorescence polarization
Concentration: concentration not given
Setting: mean of two replicates
Together with: FAM-labelled poly r(AG)8 RNA
SMILES | fluorescence polarization change [mP]
O=C1C[C@@H](c2ccccc2)[C@]2(c3ccc(Br)cc3)Oc3cc(F)cc(F)c3[C@]12O | 5.4
C#CCOc1nc(-c2ccccc2)nc2c1[C@@H](c1ccccc1)[C@]1(c3ccc(OC)cc3)Oc3cc(OCC(=O)OCC)cc(OC)c3[C@]21OCC(=O)OCC | 6.7
COc1ccc([C@@]23Oc4cc(OS(=O)(=O)c5ccc(C)cc5)cc(OC)c4[C@]2(O)c2nc(-c4ccccc4)n(Cc4ccccc4)c(=O)c2[C@H]3c2ccccc2)cc1 | 1.2
COc1ccc([C@H]2[C@H](C(=O)N(C)C)[C@@H](O)[C@@]3(O)c4c(OC)cc(OC)cc4O[C@@]23c2ccc(OC)cc2)cc1 | 0.3
COC(=O)CCCn1c(-c2ccccc2)nc2c(c1=O)[C@@H](c1ccccc1)[C@]1(c3ccc(OC)cc3)Oc3cc(OC)cc(OC)c3[C@]21O | 14.6
COC(=O)[C@H]1C(=O)[C@@]2(NCc3ccccc3)c3c(OC)cc(OC)cc3O[C@@]2(c2ccc(OC)cc2)[C@@H]1c1ccccc1 | 2.6
COC(=O)[C@H]1C(=O)[C@@]2(OC)c3c(OC)cc(OC)cc3O[C@@]2(c2ccc(OC)cc2)[C@@H]1c1ccccc1 | 2.1
COC(=O)[C@H]1[C@@H](O)[C@@]2(O)c3c(OC)cccc3N(C)[C@@]2(c2ccc(OC)cc2)[C@@H]1c1ccccc1 | 0.6
COc1cc(OC)c2c(c1)O[C@@]1(c3ccc(Br)cc3)[C@H](c3ccccc3)[C@@H](C(=O)N(C)OC)[C@@H](O)[C@@]21O | 52
COc1ccc([C@]23[C@H](c4ccccc4)C[C@@H](O)[C@@]2(O)c2c(F)cccc2N3C)cc1 | 6
COC(=O)/C=C/n1c(-c2ccccc2)nc2c(c1=O)[C@@H](c1ccccc1)[C@]1(c3ccc(OC)cc3)Oc3cc(OC)cc(OC)c3[C@]21O | 9.9
COc1ccc([C@@]23Oc4cc(OC)cc(OC)c4[C@]2(O)[C@H](O)[C@H](C(=O)c2ccccc2)[C@H]3c2ccccc2)cc1 | 5.2
C#CCCC1(CCOc2ccc([C@@H]3[C@@H](C(=O)c4ccco4)[C@@H](O)[C@@]4(O)c5c(OC)cc(OC)cc5O[C@@]34c3ccc(OC)cc3)cc2)N=N1 | -3.3
COC(=O)[C@H]1C(=O)[C@@]2(NCCN3CCOCC3)c3c(OC)cc(OC)cc3O[C@@]2(c2ccc(OC)cc2)[C@@H]1c1ccccc1 | 10.4

Block 3
Structure (SMILES): Cc1c(C(=O)O)cc(-c2ccc(C3CCNCC3)cc2)c2ccc(-c3ccc(C(F)(F)F)cc3)cc12
Concentration: 1 µM
target | test | remaining binding [%]
CAMK1G (Homo sapiens, UniProt Q96NX5) | cell-free assay, competition with immobilised ligand | 100
ULK2 (Homo sapiens, UniProt Q8IYT8) | binding, competition with immobilised ligand | 100
Tyrosine-protein kinase ABL1, non-phosphorylated (ABL1, Homo sapiens, UniProt P00519, H396P) | binding, competition with immobilised ligand | 72
ACVRL1 (Homo sapiens, UniProt P37023) | binding, competition with immobilised ligand | 100
CDK3 (Homo sapiens, UniProt Q00526) | binding, competition with immobilised ligand | 100
KIT (Homo sapiens, UniProt P10721, D816V) | binding, competition with immobilised ligand | 100
STK16 (Homo sapiens, UniProt O75716) | binding, competition with immobilised ligand | 100
MAP3K5 (Homo sapiens, UniProt Q99683) | binding, competition with immobilised ligand | 100
Insulin receptor (INSR, Homo sapiens, UniProt P06213) | cell-free assay, competition with immobilised ligand | 100
GRK4 (Homo sapiens, UniProt P32298) | binding, competition with immobilised ligand | 100
LIM domain kinase 2 (LIMK2, Homo sapiens, UniProt P53671) | binding, competition with immobilised ligand | 100
IKBKE (Homo sapiens, UniProt Q14164) | binding, competition with immobilised ligand | 100
COQ8A (Homo sapiens, UniProt Q8NI60) | cell-free assay, competition with immobilised ligand | 100
Tyrosine-protein kinase ABL1, phosphorylated (ABL1, Homo sapiens, UniProt P00519) | binding, competition with immobilised ligand | 82
PRKCQ (Homo sapiens, UniProt Q04759) | cell-free assay, competition with immobilised ligand | 100
CDC42BPG (Homo sapiens, UniProt Q6DT37) | competition binding | 100
FGR (Homo sapiens, UniProt P09769) | cell-free assay, competition with immobilised ligand | 100
LRRK2 (Homo sapiens, UniProt Q5S007) | binding, competition with immobilised ligand | 100
Tyrosine-protein kinase ABL1, non-phosphorylated (ABL1, Homo sapiens, UniProt P00519, F317I) | binding, competition with immobilised ligand | 100
WEE2 (Homo sapiens, UniProt P0C1S8) | binding, competition with immobilised ligand | 100
CHEK1 (Homo sapiens, UniProt O14757) | binding, competition with immobilised ligand | 100
AKT3 (Homo sapiens, UniProt Q9Y243) | binding, competition with immobilised ligand | 100
FLT3 (Homo sapiens, UniProt P36888, F691L/ITD) | binding, competition with immobilised ligand | 100
MAP4K2 (Homo sapiens, UniProt Q12851) | binding, competition with immobilised ligand | 100
Tyrosine-protein kinase JAK1, JH1 (JAK1, Homo sapiens, UniProt P23458) | binding, competition with immobilised ligand | 100

Block 4
Target: Serine/threonine-protein kinase haspin (HASPIN, Homo sapiens, UniProt Q8TF76)
UniProt Q8TF76, sequence (whole entry, looked up): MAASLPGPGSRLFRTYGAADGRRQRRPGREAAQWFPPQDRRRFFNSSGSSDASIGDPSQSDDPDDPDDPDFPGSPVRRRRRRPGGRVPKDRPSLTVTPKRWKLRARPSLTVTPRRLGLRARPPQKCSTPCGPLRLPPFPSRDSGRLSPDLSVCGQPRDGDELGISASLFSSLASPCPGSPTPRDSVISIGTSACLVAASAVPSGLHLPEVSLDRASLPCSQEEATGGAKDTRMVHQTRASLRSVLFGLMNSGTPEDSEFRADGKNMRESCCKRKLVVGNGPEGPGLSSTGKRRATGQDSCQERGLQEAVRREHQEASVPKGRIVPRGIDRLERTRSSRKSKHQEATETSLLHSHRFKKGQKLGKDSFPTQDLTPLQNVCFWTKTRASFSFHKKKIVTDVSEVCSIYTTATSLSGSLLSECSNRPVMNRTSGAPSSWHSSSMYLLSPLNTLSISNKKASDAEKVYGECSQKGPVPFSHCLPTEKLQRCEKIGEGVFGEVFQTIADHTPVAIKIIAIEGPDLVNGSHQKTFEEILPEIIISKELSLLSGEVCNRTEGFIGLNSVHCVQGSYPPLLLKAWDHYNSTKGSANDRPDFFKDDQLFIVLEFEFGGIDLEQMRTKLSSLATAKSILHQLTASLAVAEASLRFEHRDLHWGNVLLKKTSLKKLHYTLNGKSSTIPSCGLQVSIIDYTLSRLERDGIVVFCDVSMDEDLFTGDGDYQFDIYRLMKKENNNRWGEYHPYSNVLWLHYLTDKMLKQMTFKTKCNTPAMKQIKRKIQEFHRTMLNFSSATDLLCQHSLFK
Observed: enzyme activity
Mode: inhibitor
Concentration: 0.5 µM
Reference: control
Compound | remaining activity [%]
CN(C)CCCn1cc(C2=C(c3c[nH]c4ccccc34)C(=O)NC2=O)c2ccccc21 | 93.6
CC(C)[C@H](CO)Nc1nc(Nc2cccc(Cl)c2)c2ncn(C(C)C)c2n1 | 93.6
COc1cc2ncnc(N3CCN(C(=O)Nc4ccc(Oc5ccccc5)cc4)CC3)c2cc1OC | 93.2
COc1cc2ncc(-c3ccccc3)nc2cc1OC | 92.1
C[S+]([O-])c1ccc(-c2nc(-c3ccncc3)c(-c3ccc(F)cc3)[nH]2)cc1 (stereo not shown) | 88.2
Cc1ccc(NC(=O)c2ccc(CN3CCN(C)CC3)cc2)cc1Nc1nccc(-c2cccnc2)n1 | 92.7
Cn1cnc2cc3c(Nc4cccc(Br)c4)ncnc3cc21 | 89.4
Cn1cc(/C=C2\C(=O)Nc3ccc(S(N)(=O)=O)cc32)c2ccccc21 | 93.1
CCOc1cc2ncnc(Nc3cccc(Br)c3)c2cc1OCC | 90.6
O=C1NC(=O)/C(=C/c2ccc3nccnc3c2)S1 | 38.8
COc1ccc(Cl)cc1NC(=O)Nc1cc(C)nc2ccccc12 | 95.7
O=C(Nc1ccc(Cl)cc1)c1ccccc1NCc1ccncc1 | 95.5
CC(C)c1nn(-c2c(Cl)cccc2Cl)c2nc(Cc3ccc(OCCO)cc3)[nH]c(=O)c12 | 94.3
CS(=O)(=O)CCNCc1ccc(-c2ccc3ncnc(Nc4ccc(OCc5cccc(F)c5)c(Cl)c4)c3c2)o1 | 66.5
COc1ccc(-c2cnc3c(-c4ccsc4)cnn3c2)cc1 | 77.2
CC(=O)O/N=C1/C(c2c(O)[nH]c3cc(Br)ccc23)=Nc2ccccc21 | 85.5
CCN1/C(=C/C(C)=O)Sc2ccc(OC)cc21 | 25
O=c1cc(N2CCOCC2)oc2c1ccc1ccccc12 | 85.6
COc1cc2ncnc(Nc3ccc(OCc4ccccc4)cc3)c2cc1OC | 86.2
Nc1[nH]nc2nnc(-c3c(-c4ccccc4)nn4ccccc34)cc12 | 97.1
Cc1nc(Nc2ncc(C(=O)Nc3c(C)cccc3Cl)s2)cc(N2CCN(CCO)CC2)n1 | 91.9
CCC(=O)Nc1ccc2ncnc(Nc3cccc(Br)c3)c2c1 | 95.2

A few entries again (block 4):
Compound | remaining activity [%]
O=C1NC(=O)/C(=C/c2ccc3nccnc3c2)S1 | 38.8
CS(=O)(=O)CCNCc1ccc(-c2ccc3ncnc(Nc4ccc(OCc5cccc(F)c5)c(Cl)c4)c3c2)o1 | 66.5
CC(=O)O/N=C1/C(c2c(O)[nH]c3cc(Br)ccc23)=Nc2ccccc21 | 85.5
O=C(Nc1ccc(Cl)cc1)c1ccccc1NCc1ccncc1 | 95.5
Cc1ccc(NC(=O)c2ccc(CN3CCN(C)CC3)cc2)cc1Nc1nccc(-c2cccnc2)n1 | 92.7
